# Experimental data from different studies.
# Each numbered part is a random draw from the data of one study; scales do not carry over between parts.

# Study 1 — technique: aptamer microarray, sandwich; form: DNA with 2'F-ANA; sample: in vitro; tested at: 200 nM; added: Cy3 exosite-II aptamer, 400 nM; reading: higher = stronger binding; oligonucleotide: GGTTGGTGTGGTTGG
# Target: Prothrombin, mature alpha-thrombin (F2, Homo sapiens, UniProt P00734)
# Notes: whole 15-mer aptamer, many near background
Modification,mean fluorescence intensity
2'F-ANA at 2 3 4 7 8 9 10 11 15,219 a.u.
2'F-ANA at 2 3 4 5 6 12 14,49.3 a.u.
2'F-ANA at 2 3 4 6 10 11 12 15,259 a.u.
2'F-ANA at 1 5 6 7 8 12 14,49.8 a.u.
2'F-ANA at 4 5 7 8 10 11 12 14 15,50.6 a.u.

# Study 2 — technique: protein-binding microarray; form: double-stranded DNA, one strand shown; sample: in vitro; tested at: 0.8 µM; notes: whole 60-bp probe, no competitor; reading: higher = stronger binding
# Target: Centromere-binding protein 1, full length, N-terminal tag (CBF1, Saccharomyces cerevisiae, UniProt P17106, residues 1-351)
# UniProt P17106, sequence (whole entry, looked up): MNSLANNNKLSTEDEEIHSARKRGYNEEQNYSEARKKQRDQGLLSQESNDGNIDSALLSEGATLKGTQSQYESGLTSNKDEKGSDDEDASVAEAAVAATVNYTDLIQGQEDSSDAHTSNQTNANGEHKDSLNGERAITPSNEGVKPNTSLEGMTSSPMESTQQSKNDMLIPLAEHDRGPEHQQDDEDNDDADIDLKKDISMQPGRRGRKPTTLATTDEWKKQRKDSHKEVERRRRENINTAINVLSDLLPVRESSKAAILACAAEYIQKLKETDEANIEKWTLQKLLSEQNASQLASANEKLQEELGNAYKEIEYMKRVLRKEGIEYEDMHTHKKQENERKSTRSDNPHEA
Oligonucleotide,fluorescence intensity [a.u.]
CTATTACTCCAAGGGTTCGTGACGTCGAATTCCTTCGTCTTGATTCGCTTGACGCTGCTG,999
TGTACGAAGCTATATCACGCGGTTATAGTAGTTAGGGTCTTGATTCGCTTGACGCTGCTG,963
GAATAATTCTATCATCACGCTTATAGTGTTTACTAGGTCTTGATTCGCTTGACGCTGCTG,635
GAAACAAGAGGCCTTCACACCATTTATTTCAGCTAGGTCTTGATTCGCTTGACGCTGCTG,484

# Study 3 — technique: protein binding microarray; form: double-stranded DNA, one strand shown; sample: in vitro; tested at: not given; reference: not given; reading: higher = stronger binding
# Target: Histone acetyltransferase KAT6A, winged helix 2, GST fusion (KAT6A, Homo sapiens, UniProt Q92794, residues 85-181)
# Notes: 8-mer, flanks averaged, mean of 2 arrays, mostly near background
# Residues (chain): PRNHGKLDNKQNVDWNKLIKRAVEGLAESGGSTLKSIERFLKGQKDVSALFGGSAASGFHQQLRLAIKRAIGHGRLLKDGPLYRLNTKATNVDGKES
Oligonucleotide,E-score
AGGCTGGC,-0.0825
AGTCGGCG,0.157
CCCGATTC,0.1
CACTCGAA,0.0321
GCTCGATA,0.158
ACGCGGAA,0.0053

# Single results of other studies
Molecule,target,assay,system,setting,how to read,measurement,result
"PhoQ, residues 284 288 289 292 302 303 SLANKL","PhoP, residues 12 14 15 18 19 NQCAL (Escherichia coli, UniProt P23836)","Sort-seq, refers to: YFP reporter",E. coli,"PhoQ-PhoP variant library, added: 10 µM Mg2+","reference: high Mg2+ state, higher = stronger signaling",fold induction,7.31

# Repeated from above (study 1):
Modification,mean fluorescence intensity
2'F-ANA at 2 3 4 7 8 9 10 11 15,219 a.u.
